Published values gathered from unrelated publications.
A part holds a random share of what one study measured.
Sequence of UniProt Q6DT37 (whole entry, looked up): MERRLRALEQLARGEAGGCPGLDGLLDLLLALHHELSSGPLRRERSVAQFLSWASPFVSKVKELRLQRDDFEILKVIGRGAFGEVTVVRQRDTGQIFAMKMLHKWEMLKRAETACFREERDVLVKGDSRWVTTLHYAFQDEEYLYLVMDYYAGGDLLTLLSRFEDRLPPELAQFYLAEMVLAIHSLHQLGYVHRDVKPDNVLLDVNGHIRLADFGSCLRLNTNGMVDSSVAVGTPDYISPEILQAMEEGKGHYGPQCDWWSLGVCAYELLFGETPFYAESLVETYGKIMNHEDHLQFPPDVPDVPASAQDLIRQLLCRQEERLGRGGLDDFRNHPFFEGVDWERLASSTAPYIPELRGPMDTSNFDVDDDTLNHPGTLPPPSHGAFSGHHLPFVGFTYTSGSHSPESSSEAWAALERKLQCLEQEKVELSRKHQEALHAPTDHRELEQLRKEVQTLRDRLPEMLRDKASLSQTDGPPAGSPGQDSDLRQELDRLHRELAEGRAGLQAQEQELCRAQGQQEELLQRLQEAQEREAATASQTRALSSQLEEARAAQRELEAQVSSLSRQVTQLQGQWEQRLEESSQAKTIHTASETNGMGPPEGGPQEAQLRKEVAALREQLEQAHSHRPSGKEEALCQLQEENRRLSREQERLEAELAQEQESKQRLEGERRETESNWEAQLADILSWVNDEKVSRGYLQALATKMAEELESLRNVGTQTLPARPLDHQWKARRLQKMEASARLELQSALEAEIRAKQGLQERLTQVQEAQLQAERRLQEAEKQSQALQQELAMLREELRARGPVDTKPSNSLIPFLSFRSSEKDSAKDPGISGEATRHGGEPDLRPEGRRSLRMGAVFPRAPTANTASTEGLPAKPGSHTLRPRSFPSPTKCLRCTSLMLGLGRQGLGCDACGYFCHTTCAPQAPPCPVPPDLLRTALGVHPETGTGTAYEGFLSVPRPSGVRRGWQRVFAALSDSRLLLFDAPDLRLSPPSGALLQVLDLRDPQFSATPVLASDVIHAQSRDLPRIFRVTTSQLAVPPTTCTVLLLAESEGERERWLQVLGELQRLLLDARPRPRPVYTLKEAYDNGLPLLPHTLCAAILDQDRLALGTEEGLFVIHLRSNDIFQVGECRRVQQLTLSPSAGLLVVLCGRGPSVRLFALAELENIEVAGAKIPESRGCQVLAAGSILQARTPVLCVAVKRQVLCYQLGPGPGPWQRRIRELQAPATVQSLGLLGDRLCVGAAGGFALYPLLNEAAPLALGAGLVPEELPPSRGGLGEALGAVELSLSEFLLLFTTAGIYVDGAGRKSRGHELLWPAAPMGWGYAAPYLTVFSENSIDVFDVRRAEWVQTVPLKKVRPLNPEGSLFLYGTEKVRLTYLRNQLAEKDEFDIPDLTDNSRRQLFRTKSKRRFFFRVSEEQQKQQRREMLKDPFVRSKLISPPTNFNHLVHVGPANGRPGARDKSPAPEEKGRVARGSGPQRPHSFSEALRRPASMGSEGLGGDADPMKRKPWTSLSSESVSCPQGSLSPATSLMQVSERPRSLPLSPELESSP
Sequence of UniProt Q8N4C8 (whole entry, looked up): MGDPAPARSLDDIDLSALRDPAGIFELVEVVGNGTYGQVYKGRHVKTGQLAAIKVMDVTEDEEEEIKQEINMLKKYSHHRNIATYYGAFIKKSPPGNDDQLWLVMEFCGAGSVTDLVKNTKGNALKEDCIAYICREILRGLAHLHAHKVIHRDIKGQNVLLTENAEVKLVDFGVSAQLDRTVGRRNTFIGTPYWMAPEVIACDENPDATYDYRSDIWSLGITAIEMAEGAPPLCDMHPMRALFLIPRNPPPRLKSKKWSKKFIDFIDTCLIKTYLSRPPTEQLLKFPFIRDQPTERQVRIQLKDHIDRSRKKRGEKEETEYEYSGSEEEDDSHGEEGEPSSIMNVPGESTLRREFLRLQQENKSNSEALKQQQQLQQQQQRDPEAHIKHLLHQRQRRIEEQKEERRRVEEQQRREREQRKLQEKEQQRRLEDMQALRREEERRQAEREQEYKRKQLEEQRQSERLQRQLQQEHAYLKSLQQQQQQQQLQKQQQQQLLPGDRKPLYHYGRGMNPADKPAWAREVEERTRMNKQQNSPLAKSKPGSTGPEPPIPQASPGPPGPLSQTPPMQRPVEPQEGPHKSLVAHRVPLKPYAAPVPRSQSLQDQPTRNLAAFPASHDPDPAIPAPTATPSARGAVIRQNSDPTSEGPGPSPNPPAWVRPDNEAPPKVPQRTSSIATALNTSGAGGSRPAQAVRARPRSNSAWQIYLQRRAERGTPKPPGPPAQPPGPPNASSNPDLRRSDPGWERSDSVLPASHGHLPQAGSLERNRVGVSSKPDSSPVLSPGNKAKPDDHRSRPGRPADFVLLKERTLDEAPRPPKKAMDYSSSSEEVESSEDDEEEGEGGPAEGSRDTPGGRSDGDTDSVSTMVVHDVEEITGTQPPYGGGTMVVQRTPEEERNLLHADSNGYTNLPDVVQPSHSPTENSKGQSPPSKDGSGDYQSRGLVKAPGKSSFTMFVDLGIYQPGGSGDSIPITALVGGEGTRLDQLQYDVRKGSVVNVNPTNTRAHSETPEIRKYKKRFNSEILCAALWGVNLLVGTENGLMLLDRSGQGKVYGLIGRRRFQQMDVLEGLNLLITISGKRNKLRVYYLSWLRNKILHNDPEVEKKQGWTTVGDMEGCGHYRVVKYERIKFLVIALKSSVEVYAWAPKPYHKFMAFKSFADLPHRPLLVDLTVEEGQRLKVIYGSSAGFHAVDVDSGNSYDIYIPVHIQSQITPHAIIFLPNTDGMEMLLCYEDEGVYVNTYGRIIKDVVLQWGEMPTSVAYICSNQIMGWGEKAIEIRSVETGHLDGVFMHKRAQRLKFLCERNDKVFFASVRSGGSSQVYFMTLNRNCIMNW
Sequence of UniProt Q86YV6 (whole entry, looked up): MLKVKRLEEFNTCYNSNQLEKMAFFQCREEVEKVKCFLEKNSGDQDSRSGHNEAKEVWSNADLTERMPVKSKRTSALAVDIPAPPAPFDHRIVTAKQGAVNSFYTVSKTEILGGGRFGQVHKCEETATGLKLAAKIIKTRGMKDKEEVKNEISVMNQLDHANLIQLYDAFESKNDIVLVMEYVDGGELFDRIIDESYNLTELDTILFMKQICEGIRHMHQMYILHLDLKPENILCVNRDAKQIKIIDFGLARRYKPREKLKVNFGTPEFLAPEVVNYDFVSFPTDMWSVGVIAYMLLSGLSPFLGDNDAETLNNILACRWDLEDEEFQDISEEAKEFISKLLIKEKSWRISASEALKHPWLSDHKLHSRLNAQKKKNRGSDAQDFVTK

Sample 1
Structure (SMILES): CS(=O)(=O)c1cc(C2(NC(=O)c3cncc4c3cnn4-c3ccc(F)cc3)CC2)ccn1
Concentration: 1 µM
Measurement: remaining binding
MINK1 (Homo sapiens, UniProt Q8N4C8); cell-free assay, competition with immobilised ligand: 100%
CAMK1G (Homo sapiens, UniProt Q96NX5); cell-free assay, competition with immobilised ligand: 100%
Tyrosine-protein kinase ABL1, phosphorylated (ABL1, Homo sapiens, UniProt P00519, H396P); cell-free assay, competition with immobilised ligand: 100%
GRK2 (Homo sapiens, UniProt P25098); cell-free assay, competition with immobilised ligand: 48%
ULK1 (Homo sapiens, UniProt O75385); cell-free assay, competition with immobilised ligand: 100%
Ribosomal protein S6 kinase alpha-5, C-terminal kinase domain (RPS6KA5, Homo sapiens, UniProt O75582); cell-free assay, competition with immobilised ligand: 61%
NTRK2 (Homo sapiens, UniProt Q16620); cell-free assay, competition with immobilised ligand: 91%
MYLK4 (Homo sapiens, UniProt Q86YV6); cell-free assay, competition with immobilised ligand: 85%
RET (Homo sapiens, UniProt P07949, M918T); cell-free assay, competition with immobilised ligand: 100%
MAP4K3 (Homo sapiens, UniProt Q8IVH8); cell-free assay, competition with immobilised ligand: 87%
INSRR (Homo sapiens, UniProt P14616); cell-free assay, competition with immobilised ligand: 65%
MKNK2 (Homo sapiens, UniProt Q9HBH9); cell-free assay, competition with immobilised ligand: 100%
EPHA5 (Homo sapiens, UniProt P54756); cell-free assay, competition with immobilised ligand: 100%
EGFR (Homo sapiens, UniProt P00533, T790M); cell-free assay, competition with immobilised ligand: 100%
SBK1 (Homo sapiens, UniProt Q52WX2); cell-free assay, competition with immobilised ligand: 95%
ERBB4 (Homo sapiens, UniProt Q15303); cell-free assay, competition with immobilised ligand: 100%
EGFR (Homo sapiens, UniProt P00533); cell-free assay, competition with immobilised ligand: 100%
PIK3C3 (Homo sapiens, UniProt Q8NEB9); cell-free assay, competition with immobilised ligand: 86%
CDC42BPG (Homo sapiens, UniProt Q6DT37); competition binding: 100%
CDC42BPA (Homo sapiens, UniProt Q5VT25); cell-free assay, competition with immobilised ligand: 100%

Sample 2
Compound: C=CCc1ccc(O)c(-c2ccc(O)c(CC=C)c2)c1
Read-out: chloride current
Measurement: normalized current
ANO1 del476-501/F628A: Anoctamin-1 (ANO1, Homo sapiens, UniProt Q5XXA6, del476-501/F628A)
Sequence of UniProt Q5XXA6 (whole entry, unmodified, looked up): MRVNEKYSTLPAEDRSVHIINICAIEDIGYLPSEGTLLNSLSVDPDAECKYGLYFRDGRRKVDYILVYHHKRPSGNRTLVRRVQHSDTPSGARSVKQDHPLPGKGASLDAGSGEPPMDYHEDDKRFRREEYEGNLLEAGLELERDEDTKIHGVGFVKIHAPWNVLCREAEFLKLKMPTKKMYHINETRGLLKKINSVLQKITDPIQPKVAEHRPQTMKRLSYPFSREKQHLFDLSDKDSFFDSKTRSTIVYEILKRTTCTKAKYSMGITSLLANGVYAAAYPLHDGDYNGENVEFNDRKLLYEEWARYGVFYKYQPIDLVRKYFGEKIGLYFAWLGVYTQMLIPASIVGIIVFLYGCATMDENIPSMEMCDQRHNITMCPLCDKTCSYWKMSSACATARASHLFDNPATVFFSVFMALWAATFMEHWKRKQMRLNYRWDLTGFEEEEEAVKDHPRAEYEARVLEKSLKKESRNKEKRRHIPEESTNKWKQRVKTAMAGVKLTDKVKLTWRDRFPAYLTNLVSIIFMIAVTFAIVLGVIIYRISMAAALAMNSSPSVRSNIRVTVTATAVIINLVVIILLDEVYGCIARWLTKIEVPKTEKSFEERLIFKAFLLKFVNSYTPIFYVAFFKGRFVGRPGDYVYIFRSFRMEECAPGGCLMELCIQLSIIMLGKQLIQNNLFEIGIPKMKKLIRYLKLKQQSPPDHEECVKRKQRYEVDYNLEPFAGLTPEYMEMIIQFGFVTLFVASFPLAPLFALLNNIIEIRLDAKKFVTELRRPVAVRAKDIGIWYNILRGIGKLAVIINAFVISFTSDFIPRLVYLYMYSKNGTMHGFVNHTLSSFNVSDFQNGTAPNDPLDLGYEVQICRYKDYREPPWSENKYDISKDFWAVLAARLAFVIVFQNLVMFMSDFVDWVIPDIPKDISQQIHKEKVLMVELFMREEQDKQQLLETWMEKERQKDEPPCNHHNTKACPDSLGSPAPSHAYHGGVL
Anoctamin-1 (ANO1, Homo sapiens, UniProt Q5XXA6); inhibitor, inside-out patch clamp; 10 µM, wild type at -100 mV: -0.709
ANO1 del476-501/F628A; whole-cell voltage clamp; 1 µM, I-V at 80 mV, added: 4 µM Ca2+: 0.681
ANO1 del476-501/F628A; whole-cell voltage clamp; 3 µM, I-V at 80 mV, added: 4 µM Ca2+: 0.681
ANO1 del476-501/F628A; whole-cell voltage clamp; 10 µM, concentration-response at -60 mV, added: 4 µM Ca2+: -0.439
ANO1 del476-501/F628A; whole-cell voltage clamp; 10 µM, I-V at 0 mV, added: 4 µM Ca2+: -0.0042
TMEM16A (human) K603A/E623A; inside-out patch clamp; 10 µM, membrane voltage 100 mV: 0.773
ANO1 del476-501/F628A; whole-cell voltage clamp; 100 µM, I-V at 40 mV, added: 4 µM Ca2+: 0.0963
ANO1 del476-501/F628A; whole-cell voltage clamp; 100 µM, concentration-response at 40 mV, added: 4 µM Ca2+: 0.0632
Anoctamin-1 (ANO1, Homo sapiens, UniProt Q5XXA6, del476-501/E659A); inhibitor, inside-out patch clamp; 10 µM, E633A mutant at -80 mV: -0.843
ANO1 del476-501/F628A; whole-cell voltage clamp; 10 µM, I-V at 100 mV, added: 4 µM Ca2+: 0.74
Anoctamin-1 (ANO1, Homo sapiens, UniProt Q5XXA6, del476-501/F807A); inhibitor, whole-cell voltage clamp; 1 µM; baseline: untreated: 1.04
ANO1 del476-501/F628A; whole-cell voltage clamp; 1 µM, I-V at -100 mV, added: 4 µM Ca2+: -0.815

Sample 3
Cell line: HH
Concentration: 2 µM
Time: 48 h
Baseline: untreated
Measurement: viability
COc1cc2nccc(Oc3ccc(NC(=O)NC4CC4)c(Cl)c3)c2cc1C(N)=O: 56.9%
CCN1/C(=C/C(C)=O)Sc2ccc(OC)cc21: 79.3%
COc1cc(OC)c(/C=C/S(=O)(=O)Cc2ccc(OC)c(NCC(=O)O)c2)c(OC)c1: 38.3%
COc1cc2ncnc(Oc3ccc(CC(=O)Nc4cnn(C(C)C)c4)cc3)c2cc1OC: 96.1%
COc1ccc(Cl)cc1NC(=O)Nc1cc(C)nc2ccccc12: 65.5%
Oc1ccc2ccccc2c1SSc1c(O)ccc2ccccc12: 90.8%
C=CC(=O)Nc1cccc(Nc2nc(Nc3ccc(NC4CN(CCF)C4)cc3OC)ncc2C(F)(F)F)c1: 67.5%
Cc1cnc(Nc2ccc(OCCN3CCCC3)cc2)nc1Nc1cccc(S(=O)(=O)NC(C)(C)C)c1: 40.9%
CC(=O)c1c(C)c2cnc(Nc3ccc(N4CCNCC4)cn3)nc2n(C2CCCC2)c1=O: 67.9%
O=C(NOCC1CC1)c1ccc(F)c(F)c1Nc1ccc(I)cc1Cl: 103%
Cc1cc(N2CCOCC2)cc2[nH]c(-c3c(NC[C@@H](O)c4cccc(Cl)c4)cc[nH]c3=O)nc12: 81.6%
C[C@H](Nc1ncnc2nc[nH]c12)c1cc2cccc(Cl)c2c(=O)n1-c1ccccc1: 67%
OC(c1cc(-c2ccc(Cl)cc2)nc2ccccc12)C1CCCCN1 (stereo not shown): 80%

Sample 4
Target: Mitogen-activated protein kinase kinase kinase 11 (MAP3K11, Homo sapiens, UniProt Q16584)
Sequence of UniProt Q16584 (whole entry, looked up): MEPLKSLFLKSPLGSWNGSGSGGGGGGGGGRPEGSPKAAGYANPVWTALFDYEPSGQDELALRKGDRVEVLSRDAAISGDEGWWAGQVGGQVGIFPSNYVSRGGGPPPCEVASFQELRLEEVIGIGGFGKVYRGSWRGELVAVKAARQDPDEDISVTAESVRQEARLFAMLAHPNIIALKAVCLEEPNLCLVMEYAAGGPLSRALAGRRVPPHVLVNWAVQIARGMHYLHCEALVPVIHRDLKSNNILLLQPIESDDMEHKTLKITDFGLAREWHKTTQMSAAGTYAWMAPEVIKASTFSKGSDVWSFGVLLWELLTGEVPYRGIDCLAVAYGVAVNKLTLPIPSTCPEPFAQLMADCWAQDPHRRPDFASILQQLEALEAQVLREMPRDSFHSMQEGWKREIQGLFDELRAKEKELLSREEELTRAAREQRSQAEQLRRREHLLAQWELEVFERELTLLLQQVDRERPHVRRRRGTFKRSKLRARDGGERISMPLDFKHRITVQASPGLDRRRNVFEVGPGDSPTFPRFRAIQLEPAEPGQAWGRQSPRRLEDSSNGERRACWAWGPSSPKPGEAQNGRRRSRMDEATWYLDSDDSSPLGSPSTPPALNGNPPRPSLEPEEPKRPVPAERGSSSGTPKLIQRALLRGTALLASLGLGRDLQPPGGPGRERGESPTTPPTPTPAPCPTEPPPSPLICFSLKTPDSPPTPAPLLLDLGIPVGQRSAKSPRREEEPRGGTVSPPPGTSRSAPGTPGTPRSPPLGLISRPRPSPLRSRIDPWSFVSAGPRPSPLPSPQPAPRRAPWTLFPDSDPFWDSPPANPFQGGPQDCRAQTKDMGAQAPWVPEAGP
Read-out: enzyme activity
Mode: inhibitor
Concentration: 0.5 µM
Baseline: control
Measurement: remaining activity
Cc1cc(Nc2nc(-c3ccccc3)nc3ccccc23)n[nH]1: 18.1%
COc1ccc(S(=O)(=O)N(CCO)c2ccccc2CN(C)CC=Cc2ccc(Cl)cc2)cc1: 99.3%
N#CC(=C(N)Sc1ccc(N)cc1)c1ccccc1C(F)(F)F: 99.9%
O=C1Cc2c([nH]c3ccc([N+](=O)[O-])cc23)-c2ccccc2N1: 11.8%
COc1cc(Nc2c(C#N)cnc3cc(OCCCN4CCN(C)CC4)c(OC)cc23)c(Cl)cc1Cl: 13.5%
O=C1NC(=O)C(c2c[nH]c3ccccc23)=C1c1c[nH]c2ccccc12: 68.7%
CCc1[nH]c(-c2ccc(OC)cc2)nc1-c1ccncc1: 96.7%
Cc1ccc(NC2=CC(=O)c3sc(C)nc3C2=O)cc1: 101%
CC(=O)c1ccc(N2CCOCC2)cc1O: 94.8%
CC[n+]1c(/C=C/N(C)c2ccccc2)n(-c2ccccc2)c2ccc(-c3nc4ccccc4s3)cc21: 102%
Fc1ccc(-c2nc3n(c2-c2ccncc2)CCS3)cc1: 95.7%
CSc1nc(-c2ccnc(N[C@@H](C)c3ccccc3)c2)c(-c2ccc(F)cc2)[nH]1 (racemic): 101%
O=S(=O)(NCCNC/C=C/c1ccc(Br)cc1)c1cccc2cnccc12: 95.6%
NC(=O)c1ccc(N(C(N)=O)c2c(F)cccc2F)nc1-c1ccc(F)cc1F: 105%
CCCC(=O)Oc1ccc2[nH]c(C(=O)c3cc4ccccc4[nH]3)cc2c1: 98.7%
Cc1cncc2cccc(S(=O)(=O)N3CCCN(C(=O)CN)C[C@@H]3C)c12: 98.4%
Oc1ccc(Nc2nc(-c3ccc(Cl)cc3)cs2)cc1: 95.3%
Nc1nccc(-c2c(-c3ccc(F)cc3)ncn2C2CCNCC2)n1: 96.3%
Nc1nc(Nc2ccc(S(N)(=O)=O)cc2)nn1C(=O)c1c(F)cccc1F: 47.2%
CC#CC(=O)Nc1cc2c(Nc3ccc(F)c(Cl)c3)ncnc2cn1: 99.3%
Nc1ncnc2c1cnn2-c1ccccc1: 96%
CC(C)(C)n1nc(Cc2cccc3ccccc23)c2c(N)ncnc21: 94.8%

For quick reference, copied from above (sample 3):
C[C@H](Nc1ncnc2nc[nH]c12)c1cc2cccc(Cl)c2c(=O)n1-c1ccccc1: 67%
C=CC(=O)Nc1cccc(Nc2nc(Nc3ccc(NC4CN(CCF)C4)cc3OC)ncc2C(F)(F)F)c1: 67.5%
Cc1cc(N2CCOCC2)cc2[nH]c(-c3c(NC[C@@H](O)c4cccc(Cl)c4)cc[nH]c3=O)nc12: 81.6%
CC(=O)c1c(C)c2cnc(Nc3ccc(N4CCNCC4)cn3)nc2n(C2CCCC2)c1=O: 67.9%
COc1ccc(Cl)cc1NC(=O)Nc1cc(C)nc2ccccc12: 65.5%
COc1cc2nccc(Oc3ccc(NC(=O)NC4CC4)c(Cl)c3)c2cc1C(N)=O: 56.9%
COc1cc(OC)c(/C=C/S(=O)(=O)Cc2ccc(OC)c(NCC(=O)O)c2)c(OC)c1: 38.3%
